# Published values pooled from the literature.
# Protocols differ between the studies behind these lines. Several values in a cell are separate wells, animals, samples, runs or records. ± gives the spread as reported.
# UniProt P18669, sequence (whole entry, looked up): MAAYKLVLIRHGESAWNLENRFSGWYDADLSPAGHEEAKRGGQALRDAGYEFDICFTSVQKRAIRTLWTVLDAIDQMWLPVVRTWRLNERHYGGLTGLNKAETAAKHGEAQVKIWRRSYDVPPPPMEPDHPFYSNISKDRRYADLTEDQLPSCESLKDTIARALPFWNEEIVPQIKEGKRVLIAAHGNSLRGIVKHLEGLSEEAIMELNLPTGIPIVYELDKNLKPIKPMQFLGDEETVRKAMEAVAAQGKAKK
# UniProt Q64663, sequence (whole entry, unmodified, looked up): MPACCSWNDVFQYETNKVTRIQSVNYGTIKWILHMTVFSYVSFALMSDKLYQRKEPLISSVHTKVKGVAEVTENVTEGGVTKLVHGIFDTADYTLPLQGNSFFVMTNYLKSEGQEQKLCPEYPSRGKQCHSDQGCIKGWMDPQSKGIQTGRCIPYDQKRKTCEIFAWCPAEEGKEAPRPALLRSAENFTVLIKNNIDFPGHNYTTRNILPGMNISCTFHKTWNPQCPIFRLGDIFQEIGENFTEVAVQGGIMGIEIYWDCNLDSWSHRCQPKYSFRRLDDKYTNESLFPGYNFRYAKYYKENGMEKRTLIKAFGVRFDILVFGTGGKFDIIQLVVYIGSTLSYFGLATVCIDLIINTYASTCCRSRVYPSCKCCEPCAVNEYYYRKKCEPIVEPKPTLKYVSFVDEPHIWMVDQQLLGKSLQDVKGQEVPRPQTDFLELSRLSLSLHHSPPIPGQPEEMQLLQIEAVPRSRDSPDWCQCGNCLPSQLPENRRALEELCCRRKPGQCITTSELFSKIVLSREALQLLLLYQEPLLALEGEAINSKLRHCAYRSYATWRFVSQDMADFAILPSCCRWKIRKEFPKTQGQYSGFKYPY
# UniProt P22736, sequence (whole entry, looked up): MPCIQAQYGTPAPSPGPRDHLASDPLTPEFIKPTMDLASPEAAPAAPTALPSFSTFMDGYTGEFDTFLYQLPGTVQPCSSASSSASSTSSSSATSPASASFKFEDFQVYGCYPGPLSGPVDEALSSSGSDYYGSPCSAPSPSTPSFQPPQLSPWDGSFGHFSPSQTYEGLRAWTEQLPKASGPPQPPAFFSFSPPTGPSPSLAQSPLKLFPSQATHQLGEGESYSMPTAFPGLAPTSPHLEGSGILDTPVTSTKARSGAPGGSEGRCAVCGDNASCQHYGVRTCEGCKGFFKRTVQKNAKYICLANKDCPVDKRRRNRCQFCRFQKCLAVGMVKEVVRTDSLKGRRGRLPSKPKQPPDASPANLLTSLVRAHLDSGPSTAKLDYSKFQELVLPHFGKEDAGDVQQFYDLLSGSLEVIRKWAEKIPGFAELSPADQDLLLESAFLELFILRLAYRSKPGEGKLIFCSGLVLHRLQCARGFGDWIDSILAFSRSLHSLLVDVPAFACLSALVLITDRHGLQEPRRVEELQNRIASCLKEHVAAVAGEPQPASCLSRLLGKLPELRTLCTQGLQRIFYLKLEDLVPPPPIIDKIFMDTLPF
# UniProt Q07011, sequence (whole entry, looked up): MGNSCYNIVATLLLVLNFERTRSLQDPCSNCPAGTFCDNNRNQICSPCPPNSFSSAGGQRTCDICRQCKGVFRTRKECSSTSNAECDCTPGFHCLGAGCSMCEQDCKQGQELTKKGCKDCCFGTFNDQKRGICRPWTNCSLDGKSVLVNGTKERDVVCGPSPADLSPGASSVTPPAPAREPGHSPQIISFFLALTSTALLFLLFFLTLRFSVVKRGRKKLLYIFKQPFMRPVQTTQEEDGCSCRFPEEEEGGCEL
# UniProt P51575, sequence (whole entry, unmodified, looked up): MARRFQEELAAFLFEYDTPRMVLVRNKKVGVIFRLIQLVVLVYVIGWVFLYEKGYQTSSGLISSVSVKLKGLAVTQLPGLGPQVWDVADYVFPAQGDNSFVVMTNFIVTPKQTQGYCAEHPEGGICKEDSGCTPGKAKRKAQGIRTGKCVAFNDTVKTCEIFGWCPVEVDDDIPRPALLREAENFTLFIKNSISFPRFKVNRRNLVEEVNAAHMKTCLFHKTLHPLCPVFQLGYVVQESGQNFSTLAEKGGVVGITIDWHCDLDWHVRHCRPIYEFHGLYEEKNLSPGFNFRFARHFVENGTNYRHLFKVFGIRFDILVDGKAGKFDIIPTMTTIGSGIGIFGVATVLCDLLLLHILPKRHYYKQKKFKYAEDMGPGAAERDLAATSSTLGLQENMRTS
# UniProt Q96NY8, sequence (whole entry, looked up): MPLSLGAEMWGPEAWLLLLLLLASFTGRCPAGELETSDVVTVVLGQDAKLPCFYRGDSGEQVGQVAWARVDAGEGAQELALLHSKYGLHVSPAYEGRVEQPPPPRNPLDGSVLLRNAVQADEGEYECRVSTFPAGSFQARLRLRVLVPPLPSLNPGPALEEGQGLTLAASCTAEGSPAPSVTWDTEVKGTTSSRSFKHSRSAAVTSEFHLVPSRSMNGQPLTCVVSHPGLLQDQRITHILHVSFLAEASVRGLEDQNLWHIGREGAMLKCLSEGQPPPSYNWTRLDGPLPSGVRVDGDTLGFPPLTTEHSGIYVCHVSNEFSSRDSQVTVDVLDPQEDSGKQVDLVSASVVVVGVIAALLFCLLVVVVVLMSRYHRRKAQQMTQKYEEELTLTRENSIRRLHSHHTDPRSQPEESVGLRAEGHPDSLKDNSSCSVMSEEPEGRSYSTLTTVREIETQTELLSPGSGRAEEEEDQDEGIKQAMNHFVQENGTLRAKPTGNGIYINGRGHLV
# UniProt P31641, sequence (whole entry, unmodified, looked up): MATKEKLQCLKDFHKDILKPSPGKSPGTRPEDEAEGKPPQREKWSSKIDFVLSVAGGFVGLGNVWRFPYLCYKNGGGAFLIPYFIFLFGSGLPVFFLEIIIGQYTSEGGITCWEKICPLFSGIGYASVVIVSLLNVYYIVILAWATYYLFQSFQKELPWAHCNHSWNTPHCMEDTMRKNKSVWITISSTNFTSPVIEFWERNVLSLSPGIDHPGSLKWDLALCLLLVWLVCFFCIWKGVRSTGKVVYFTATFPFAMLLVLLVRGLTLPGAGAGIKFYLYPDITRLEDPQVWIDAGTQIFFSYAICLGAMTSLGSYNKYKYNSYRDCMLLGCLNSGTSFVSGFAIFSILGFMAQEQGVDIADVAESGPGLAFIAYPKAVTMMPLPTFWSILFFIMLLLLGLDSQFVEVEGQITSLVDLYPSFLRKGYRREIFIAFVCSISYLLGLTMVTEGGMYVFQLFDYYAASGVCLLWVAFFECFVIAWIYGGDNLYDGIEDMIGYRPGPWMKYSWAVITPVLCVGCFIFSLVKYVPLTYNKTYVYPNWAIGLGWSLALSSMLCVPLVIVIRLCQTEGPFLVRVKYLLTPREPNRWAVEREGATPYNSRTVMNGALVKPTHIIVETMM
# UniProt Q5AP97, sequence (whole entry, looked up): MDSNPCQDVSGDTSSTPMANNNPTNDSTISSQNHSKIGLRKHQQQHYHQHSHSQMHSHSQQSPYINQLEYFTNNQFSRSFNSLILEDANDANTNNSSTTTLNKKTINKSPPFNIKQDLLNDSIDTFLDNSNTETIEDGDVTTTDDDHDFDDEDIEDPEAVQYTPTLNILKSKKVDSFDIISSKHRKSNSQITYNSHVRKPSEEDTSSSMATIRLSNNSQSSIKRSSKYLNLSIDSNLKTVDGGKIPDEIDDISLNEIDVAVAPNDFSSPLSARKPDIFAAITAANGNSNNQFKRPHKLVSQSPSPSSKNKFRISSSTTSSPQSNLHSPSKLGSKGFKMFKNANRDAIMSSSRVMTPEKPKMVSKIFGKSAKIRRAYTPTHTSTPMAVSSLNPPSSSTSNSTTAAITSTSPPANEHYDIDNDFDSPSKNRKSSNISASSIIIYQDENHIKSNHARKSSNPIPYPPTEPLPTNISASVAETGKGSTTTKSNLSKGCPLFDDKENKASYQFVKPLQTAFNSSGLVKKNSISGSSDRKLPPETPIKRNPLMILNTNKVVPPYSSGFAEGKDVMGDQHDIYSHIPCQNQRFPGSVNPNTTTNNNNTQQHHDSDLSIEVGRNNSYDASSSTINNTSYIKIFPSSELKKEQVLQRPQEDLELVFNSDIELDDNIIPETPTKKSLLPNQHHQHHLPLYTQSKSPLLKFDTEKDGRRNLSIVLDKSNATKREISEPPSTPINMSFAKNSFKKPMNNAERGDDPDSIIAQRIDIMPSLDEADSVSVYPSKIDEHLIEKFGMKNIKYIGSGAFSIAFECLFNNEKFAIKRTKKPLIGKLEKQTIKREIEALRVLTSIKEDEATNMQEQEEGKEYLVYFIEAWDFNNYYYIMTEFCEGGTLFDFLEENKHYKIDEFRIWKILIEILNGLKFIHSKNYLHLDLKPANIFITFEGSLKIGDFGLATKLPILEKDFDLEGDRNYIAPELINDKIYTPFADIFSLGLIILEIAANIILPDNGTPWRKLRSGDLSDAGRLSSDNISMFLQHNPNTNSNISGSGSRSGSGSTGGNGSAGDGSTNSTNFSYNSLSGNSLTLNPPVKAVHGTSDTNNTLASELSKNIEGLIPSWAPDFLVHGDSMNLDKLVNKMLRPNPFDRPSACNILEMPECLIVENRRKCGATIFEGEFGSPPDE
# UniProt P41595, sequence (whole entry, looked up): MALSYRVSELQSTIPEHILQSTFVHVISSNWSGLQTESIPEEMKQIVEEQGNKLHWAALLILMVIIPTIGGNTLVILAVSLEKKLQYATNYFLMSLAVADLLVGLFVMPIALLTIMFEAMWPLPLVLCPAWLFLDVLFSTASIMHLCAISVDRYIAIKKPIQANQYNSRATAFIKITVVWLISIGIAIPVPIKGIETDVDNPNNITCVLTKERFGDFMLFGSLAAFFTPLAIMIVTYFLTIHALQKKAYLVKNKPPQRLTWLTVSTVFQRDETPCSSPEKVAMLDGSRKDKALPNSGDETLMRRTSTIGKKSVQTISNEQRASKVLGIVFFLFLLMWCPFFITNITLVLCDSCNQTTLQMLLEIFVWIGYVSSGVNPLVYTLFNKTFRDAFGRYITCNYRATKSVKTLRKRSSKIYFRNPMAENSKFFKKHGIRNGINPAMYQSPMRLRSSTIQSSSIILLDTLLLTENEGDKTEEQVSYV
Compound,target,test,test system,conditions,how to read,measurement,result
CCOC(=O)c1c(NC(=O)CNC(C)C)sc2c1CCCCC2,"Sodium channel protein type 8 subunit alpha (SCN8A, Homo sapiens, UniProt Q9UQD0)","sodium current, whole-cell voltage clamp",HEK cells,20 µM,,fast inactivation time constant,1 ± 0.1 ms
Nc1ncnc2c1ncn2[C@@H]1O[C@H](COP(=O)(O)OP(=O)(O)OP(=O)(O)O)[C@@H](O)[C@H]1O,"DNA-directed RNA polymerase subunit beta' / DNA-directed RNA polymerase subunit beta (rpoC/rpoB, Escherichia coli, UniProt P0A8T7+P0A8V2)",stopped-flow 2-aminopurine fluorescence,,elongation complex i+2→i+1,,translocation rate constant,96 ± 12 s⁻¹
CCCCCCCC(=O)c1c(O)cc(O)cc1CC(=O)OCC,"Nuclear receptor subfamily 4 group A member 1 (NR4A1, Homo sapiens, UniProt P22736)","reporter gene, NBRE reporter full-length",,10 µM,baseline: vehicle,activation,0.91 fold
Nc1ncnc2c1ncn2[C@@H]1O[C@H](COP(=O)(O)OP(=O)(O)OP(=O)(O)O)[C@@H](O)[C@H]1O,"P2X purinoceptor 7 (P2rx7, Rattus norvegicus, UniProt Q64663, Q143A/R125A)","ion current, agonist, two-electrode voltage clamp",Xenopus laevis oocytes,55 µM,baseline: highest concentration response,normalized current,0.231 and 0.29 and 0.194
C[S+]([O-])c1ccc(-c2nc(-c3ccncc3)c(-c3ccc(F)cc3)[nH]2)cc1 (stereo not drawn),"Mitogen-activated protein kinase 13 (MAPK13, Homo sapiens, UniProt O15264)","inhibitor, ADP-Glo",,concentration not given,,kinase activity,no effect
NCCCCC(=O)O,"Sodium- and chloride-dependent taurine transporter (SLC6A6, Homo sapiens, UniProt P31641, Y138A)","binding, microscale thermophoresis",,"31.3 µM, room temperature, together with: 50 nM labelled protein",higher = more binding,normalised MST signal,0.0198
CCCC[C@@H]1NC(=O)[C@H](Cc2ccc(O)cc2)NC(=O)[C@@H]2CCCN2C(=O)[C@H](CC(N)=O)NC(=O)[C@H](C)NC(=O)[C@H](Cc2ccccc2)NC(=O)[C@@H]2CSCCC(=O)N3CN(CN(C3)C(=O)CCSC[C@H](NC(C)=O)C(=O)N[C@@H](CC(C)(C)C)C(=O)N3CCC[C@H]3C(=O)N[C@@H](CCC(=O)O)C(=O)N[C@H](CCCCNC(=O)CCc3cn(CCOCCOCCOCCOCCOCCC(=O)N[C@H]4CSCCC(=O)N5CN6CN(C5)C(=O)CCSC[C@H](NC(=O)[C@@H](CC(=O)O)NC(=O)[C@H](Cc5cccc7ccccc57)NC(=O)[C@@H]5CCCN5C4=O)C(=O)N[C@@H](CCSC)C(=O)N[C@@H](CCCCNC(=N)N)C(=O)N[C@@H](CC(=O)O)C(=O)N[C@@H](Cc4c[nH]c5ccccc45)C(=O)N[C@@H](CO)C(=O)N[C@@H]([C@@H](C)O)C(=O)N4CCC[C@H]4C(=O)N4C[C@H](O)C[C@H]4C(=O)N[C@@H](Cc4c[nH]c5ccccc45)C(=O)N[C@H](C(N)=O)CSCCC6=O)nn3)C(=O)N3CCC[C@H]3C(=O)N[C@@H](Cc3ccc(O)cc3)C(=O)N2)C(=O)CCSC[C@@H](C(N)=O)NC1=O,"Tumor necrosis factor receptor superfamily member 9/Nectin-4 (Homo sapiens, UniProt Q07011+Q96NY8)","reporter gene, agonist",HT-1376 coculture with reporter cells,,baseline: background,Emax,5.1 fold
CC1=C(/C=C/C(C)=C/C=C/C(C)=C/C=O)C(C)(C)CCC1,"Rhodopsin (RHO, Bos taurus, UniProt P02699, G270A)","retinal release, Trp FRET",lipid bicelles,"28 °C, G270A mutant",baseline: wild-type rhodopsin,relative koff,1.83 ± 0.14
Nc1ncnc2c1ncn2[C@@H]1O[C@H](COP(=O)(O)CP(=O)(O)OP(=O)(O)O)[C@@H](O)[C@H]1O,"P2X purinoceptor 1 (P2RX1, Homo sapiens, UniProt P51575, D97A)",calcium influx,,10 nM,baseline: ionomycin response,calcium influx,0%
Oc1ccccc1-c1n[nH]cc1-c1ccnc2ccccc12,"Mitosis inhibitor protein kinase SWE1 (SWE1, Candida albicans, UniProt Q5AP97)","kinase binding, MIB/MS competition",Candida albicans lysate,10 µM,"baseline: DMSO, negative = stronger binding",log2 fold change,0.01
O=C(COP(=O)(O)O)[C@@H](O)[C@H](O)[C@H](O)COP(=O)(O)O,"Phosphoglycerate mutase 1 (Homo sapiens, UniProt P18669)",,,"0.1562 mM, unit not given",baseline: activity at 10 mM set to 100,enzyme activity,46.2 and 51.9 and 43.8
N#C[C@@]12C[C@@H]1[C@@H](n1cnc3c(N)nc(Cl)nc31)[C@H](O)[C@@H]2O,"5-hydroxytryptamine receptor 2B (HTR2B, Homo sapiens, UniProt P41595)",radioligand binding,,"concentration not given, together with: [3H]LSD",,binding affinity,inactive

# For quick reference, copied from above:
Compound,target,test,test system,conditions,how to read,measurement,result
Nc1ncnc2c1ncn2[C@@H]1O[C@H](COP(=O)(O)OP(=O)(O)OP(=O)(O)O)[C@@H](O)[C@H]1O,"DNA-directed RNA polymerase subunit beta' / DNA-directed RNA polymerase subunit beta (rpoC/rpoB, Escherichia coli, UniProt P0A8T7+P0A8V2)",stopped-flow 2-aminopurine fluorescence,,elongation complex i+2→i+1,,translocation rate constant,96 ± 12 s⁻¹
N#C[C@@]12C[C@@H]1[C@@H](n1cnc3c(N)nc(Cl)nc31)[C@H](O)[C@@H]2O,"5-hydroxytryptamine receptor 2B (HTR2B, Homo sapiens, UniProt P41595)",radioligand binding,,"concentration not given, together with: [3H]LSD",,binding affinity,inactive
